Published values pooled from the literature.
Numbered parts are unrelated; each lists some results of a single study.
Chain of UniProt Q9Y5N1 (whole entry, looked up): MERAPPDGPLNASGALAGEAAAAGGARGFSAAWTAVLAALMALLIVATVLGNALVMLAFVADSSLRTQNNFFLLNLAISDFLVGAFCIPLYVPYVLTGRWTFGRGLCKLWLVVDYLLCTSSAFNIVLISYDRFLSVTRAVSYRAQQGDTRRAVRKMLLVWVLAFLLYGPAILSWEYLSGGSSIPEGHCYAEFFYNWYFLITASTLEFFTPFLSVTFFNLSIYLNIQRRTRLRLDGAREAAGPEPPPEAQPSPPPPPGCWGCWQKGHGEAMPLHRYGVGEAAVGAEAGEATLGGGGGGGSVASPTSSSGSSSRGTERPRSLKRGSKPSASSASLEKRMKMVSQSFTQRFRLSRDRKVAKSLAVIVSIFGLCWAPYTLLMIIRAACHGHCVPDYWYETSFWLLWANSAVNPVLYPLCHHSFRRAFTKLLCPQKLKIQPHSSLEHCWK
Chain of UniProt P21917 (whole entry, looked up): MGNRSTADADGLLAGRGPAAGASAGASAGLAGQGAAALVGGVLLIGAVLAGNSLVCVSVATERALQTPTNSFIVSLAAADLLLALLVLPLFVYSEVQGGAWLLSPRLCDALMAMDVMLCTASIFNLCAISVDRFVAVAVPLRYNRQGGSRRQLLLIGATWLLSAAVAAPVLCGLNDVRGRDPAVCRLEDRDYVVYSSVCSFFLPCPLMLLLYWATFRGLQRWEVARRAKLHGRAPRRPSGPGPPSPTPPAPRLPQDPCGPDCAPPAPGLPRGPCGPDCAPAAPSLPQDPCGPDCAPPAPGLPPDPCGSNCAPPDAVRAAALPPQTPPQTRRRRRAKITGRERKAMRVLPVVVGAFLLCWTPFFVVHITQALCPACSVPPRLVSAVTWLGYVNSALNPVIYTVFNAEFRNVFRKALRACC
Chain of UniProt Q99720 (whole entry, looked up): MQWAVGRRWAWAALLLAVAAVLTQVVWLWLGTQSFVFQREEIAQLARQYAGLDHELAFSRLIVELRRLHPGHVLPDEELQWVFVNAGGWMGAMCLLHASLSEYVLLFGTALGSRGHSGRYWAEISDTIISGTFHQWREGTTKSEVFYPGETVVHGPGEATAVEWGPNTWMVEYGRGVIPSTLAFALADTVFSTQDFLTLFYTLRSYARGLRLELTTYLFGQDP

Sample 1
Host: human
Medium: microsomes or S9
Concentration: 2 µM
Time: 0.5 h
Quantity: remaining compound
SMILES = O=C(NC1CCN(Cc2ccc(Cl)c(Cl)c2)CC1)c1cc2ccc3ccccc3c2o1; value = > 99%
SMILES = COCCNC(=O)[C@@H]1C[C@H](Oc2cccnc2)CN1C(=O)c1ccc(OC)nc1OC; value = 69.3%
SMILES = O=C(NC1(c2nnc[nH]2)CCC1)c1cncc(F)c1; value = > 100%
SMILES = CN(CC(=O)O)C(=O)c1cc(S(=O)(=O)N(C)C)cs1; value = 80.4%

Sample 2
Compound: CN1C(=O)[C@@H](N2CCc3c(nn(Cc4ccccc4)c3Br)C2=O)COc2ccccc21
Observed: cell-free assay
Concentration: 10 µM
Quantity: inhibition
target = Sigma non-opioid intracellular receptor 1 (SIGMAR1, Homo sapiens, UniProt Q99720); value = -14.5%
target = D(4) dopamine receptor (DRD4, Homo sapiens, UniProt P21917); value = 8.9%
target = Histamine H3 receptor (HRH3, Homo sapiens, UniProt Q9Y5N1); value = -12.3%

Sample 3
Cell line: HaCaT
Concentration: 100 µM
Time: 36 h
Quantity: viability
SMILES = COc1cc(C)c(/C=C/C(C)=C/C=C/C(C)=C/C(=O)O)c(C)c1C; value = 91.3%
SMILES = NC[C@H]1O[C@H](O[C@H]2[C@H](O)[C@@H](O[C@H]3O[C@H](CO)[C@@H](O)[C@H](N)[C@H]3O)[C@H](N)C[C@@H]2N)[C@H](O)[C@@H](O)[C@@H]1O; value = 97.1%
SMILES = Clc1ccc(C(Cn2ccnc2)OCc2c(Cl)cccc2Cl)c(Cl)c1 (stereo not drawn); value = 64.6%
SMILES = CN(C)CCc1c[nH]c2ccc(C[C@H]3COC(=O)N3)cc12; value = 80.7%

Mixed results
SMILES = CC(C)n1cnc(-c2ccc(F)cc2)c1-c1ncc(C(=O)Nc2ccc(N3CCN(C)CC3)cc2)[nH]1; technique = phase 2a trial; host = idiopathic pulmonary fibrosis patients; dose = 60 mg once daily; setting = adverse event grade 1; quantity = patients with anaemia; value = 0%

For quick reference, copied from above (sample 1):
SMILES = COCCNC(=O)[C@@H]1C[C@H](Oc2cccnc2)CN1C(=O)c1ccc(OC)nc1OC; value = 69.3%
SMILES = O=C(NC1(c2nnc[nH]2)CCC1)c1cncc(F)c1; value = > 100%
